Measurements pooled from the literature.
Parts stem from different laboratories: compare values within a part only.

Study 1 — method: RNA Bind-n-Seq; form: RNA; sample: in vitro; concentration: 1 µM; setting: whole 134-nt RNA, ends assumed; together with: 150 mM KCl; reference: input library; direction: higher = stronger binding
Target: Ras GTPase-activating protein-binding protein 1, RRM domain (G3BP1, Homo sapiens, UniProt Q13283)
Chain of UniProt Q13283 (whole entry, looked up): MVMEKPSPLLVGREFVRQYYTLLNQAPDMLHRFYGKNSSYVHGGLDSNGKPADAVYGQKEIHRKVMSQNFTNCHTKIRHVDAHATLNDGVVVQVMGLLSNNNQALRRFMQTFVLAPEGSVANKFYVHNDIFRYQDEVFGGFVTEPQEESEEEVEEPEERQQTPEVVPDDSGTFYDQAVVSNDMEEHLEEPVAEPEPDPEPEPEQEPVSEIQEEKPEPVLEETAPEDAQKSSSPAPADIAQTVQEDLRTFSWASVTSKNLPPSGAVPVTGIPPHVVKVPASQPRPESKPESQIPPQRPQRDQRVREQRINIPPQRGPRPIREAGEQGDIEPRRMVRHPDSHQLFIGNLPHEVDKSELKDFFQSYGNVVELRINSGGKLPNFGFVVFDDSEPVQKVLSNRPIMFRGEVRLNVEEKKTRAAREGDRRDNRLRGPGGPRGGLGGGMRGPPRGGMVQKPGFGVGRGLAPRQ
Sequence	log2 enrichment
GGGAGUUCUACAGUCCGACGAUCAGUCCUGUGCUACACAUCGUAUGUACCGAAUCGGUUUUUUUGGAAAAAGGUUUUUGGAAAGUAUUAUGUUACGCCGUUCGGAUCUGCACUUGGAAUUCUCGGGUGUCAAGG	-0.567
GGGAGUUCUACAGUCCGACGAUCCUGUGCUACACAUCGUAUGUACCGAAUCGGGGAAAAAAAGGGGUUUGGGGUUUUUUUGGGGAAAGUAUUAUGUUACGCCGUUCGGAUCUGUGGAAUUCUCGGGUGUCAAGG	1.04
GGGAGUUCUACAGUCCGACGAUCUUUUCUCACGAUGCACCUCCCCCUGGCACUAAGAAAAAGCACUUAUCCAUUGAGCAGCUGAAUGCUCGUCGCAGGAAAGUAUGGCUCAGCUGGAAUUCUCGGGUGUCAAGG	-0.142
GGGAGUUCUACAGUCCGACGAUCUCCUCAAGUCCUGUGCUACACAUCGUAUGUACCGAAUCGGUGGUGGAAAGGAAAGUAUUAUGUUACGCCGUUCGGAUCUGCACUUCCAGCUGGAAUUCUCGGGUGUCAAGG	-0.0785

Study 2 — method: RNA Bind-n-Seq; form: RNA; sample: in vitro; concentration: not given; reference: input RNA pool; direction: higher = stronger binding
Target: RING finger protein unkempt homolog, zinc fingers 1-6, GST-SBP tag (UNK, Homo sapiens, UniProt Q9C0B0, residues 30-357)
Chain of UniProt Q9C0B0 (30-357, looked up): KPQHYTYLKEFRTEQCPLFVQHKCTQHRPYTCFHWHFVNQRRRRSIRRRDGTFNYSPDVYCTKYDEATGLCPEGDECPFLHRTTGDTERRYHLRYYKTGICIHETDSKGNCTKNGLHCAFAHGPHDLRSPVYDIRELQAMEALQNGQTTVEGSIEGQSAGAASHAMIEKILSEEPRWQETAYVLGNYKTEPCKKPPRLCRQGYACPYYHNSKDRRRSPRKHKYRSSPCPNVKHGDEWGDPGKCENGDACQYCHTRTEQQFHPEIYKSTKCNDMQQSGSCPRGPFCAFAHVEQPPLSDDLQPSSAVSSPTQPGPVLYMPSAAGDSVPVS
Setting: RNA with constant flanks, human and mouse sites, ends assumed
Sequence	bound/input enrichment [ratio]
GGGAGUUCUACAGUCCGACGAUCCACAAACCUAAUGGACAGCAUGAGAUUUCCUUCAGCGUUGCAGAUACUGAAGUGACUUCUAGCAUAUCAAUCAAUUCUUCCGAUGUACCUGAAGUCACCCAGUCAGAGAAUGUUGGAUCACAACAGAGGAUUGAGCAUCA	0.145
GGGAGUUCUACAGUCCGACGAUCGAUGAAAAGCCAGUGAGUGUUAAUGAAGUACCAGACUACCAUGAGGAUAUUCACACAUACCUUAGGGAAAUGGAGGUUAAAUGUAAACCUAAAGUGGGUUACAUGAAGAAACAGCCAGACCAACAGAGGAUUGAGCAUCA	0.16
GGGAGUUCUACAGUCCGACGAUCCCUGAAACUUCCUGCGGUAGCUCCCUCCCUUCAGAGUUACAUCAUUAUCCUGACUCUGUGUAGGUAAAUUUCCGUGAAAUUUUUGUACAAAAAAAAAGGUAAUGAAAGAACGUUGCAAAGCAACAGAGGAUUGAGCAUCA	0.424
GGGAGUUCUACAGUCCGACGAUCUAUAUGAAGGUUAUAGAACGAGCGGCUUUUCCUCGGCGUCUCUGGGAACGGGUCCGGCUUAGUAAAAACUAUGAGAAAGCACUGGAGCAAAUAGAUGAAAAUCUGAUUUACUGGCCCCGUCAACAGAGGAUUGAGCAUCA	0.597

Study 3 — method: RNA Bind-n-Seq; form: RNA; sample: in vitro; concentration: 365 nM; reference: no-protein control; direction: higher = stronger binding
Target: RNA binding protein fox-1 homolog 2, RRM domain, GST-SBP tag (RBFOX2, Homo sapiens, UniProt O43251-10, residues 100-194)
Setting: natural RNA segment, single round, ends assumed
Shared flanks, not repeated: GGGAGUUCUACAGUCCGACGAUC … UGGAAUUCUCGGGUGCCAA
Construct (chain): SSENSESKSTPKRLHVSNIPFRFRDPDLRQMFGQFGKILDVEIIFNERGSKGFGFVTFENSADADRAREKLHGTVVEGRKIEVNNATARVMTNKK
Sequence	RBNS enrichment (R)
ACUAUAAUAAUCGGUUACUGUUAUAAAGUUUAAAAGGUGGUUUUAAUGUGAAUAGCAAAUUCUGGUAUAUCGUGACUAACGCUUAAGAAUGCCUGUCUUUGAGAGGAAGG	1
CAUGUGUACUGCAGUUGUGCCUUUUCUACAACACUGCAUUGAAUAAACUUGUCCGAAGUAUCGUUUUUCAGAGUCUGGGAUGCCUAAUAAUUUCCUGGUUUUCCUCUCGU	0.356
AGUAUAGGUCUACUGAAAAACCAUUGUAAAUGGACGUUACAGGUAUGCUGUAUUUUUGAAGGUAUUUUGUUGUAUUAAGUUUGAUGAAGCUAAAAUUAGGGAACUCUGAA	0.915
CCGCAUGCUCCCUACUCCCCCACGUCUUGAUGGAACAGGUGCAUUCAAGCUAGGAAACGGAGAGAACACAGCUUGUUCAAAAGGGUUGAAUUUGGGCUCAAUCCAUAAUU	3.95
UUGGCUGGGCCUCUGGUUCUGACACUUUCUGCUGGAAGCUGUCAGGCUGGGACAGGCUUUGAUUUUGAGGGUUAGCAAGACAAAGCAAAUAAAUGCCUUCCACCUCACCG	0.173
UCUCUGAAUGGAGCAUGGCUGUUUUCAUCUCACUGCUGUAUUCCAGAUGCUGCCCACAAAUGCUCCUGCUAUGUAACAGGUGCUCAAUAAAUGUAAAUGUAUAAGCACUC	0.921

Single results of other studies
Molecule	target	assay	system	conditions	how to read	quantity	result
PhoQ, residues 284 288 289 292 302 303 NSMLDC	PhoP, residues 12 14 15 18 19 NIMAP (Escherichia coli, UniProt P23836)	Sort-seq, measured: YFP reporter	E. coli	PhoQ-PhoP variant library, together with: 10 µM Mg2+	reference: high Mg2+ state, higher = stronger signaling	fold induction	0.404
